Experimental data of several laboratories.
Numbered parts are unrelated; each lists some results of a single study.

Sample 1
Target: Transcription factor SOX-2, HMG box (SOX2, Homo sapiens, UniProt P48431, residues 19-118)
Chain of UniProt P48431 (19-118, looked up): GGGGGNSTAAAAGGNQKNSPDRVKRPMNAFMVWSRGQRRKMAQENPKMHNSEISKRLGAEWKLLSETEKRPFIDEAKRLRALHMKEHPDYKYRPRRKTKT
Method: protein-binding microarray
Molecule type: double-stranded DNA, one strand shown
Matrix: in vitro
Concentration: not given
Setting: k-mer, scored over probes, only values ≥0.25
Reading: higher = stronger binding
Quantity: E-score
AAAGAAA: 0.286
ATGTATA: 0.321
AATAAAT: 0.378
ATTGTTG: 0.46
CAATCAA: 0.331
AATTCAC: 0.414
AGAATTA: 0.322
ATTATGG: 0.363
CAATTAG: 0.325
CAATGCG: 0.287
AATCAGC: 0.32
ATTAATG: 0.308
ACTGAAT: 0.382
AATGTTA: 0.304
ATTCATC: 0.432
GTGACAA: 0.284
TAATATA: 0.287
ATTGAAA: 0.339
GGAACAA: 0.342
AATATGT: 0.258
AACTATT: 0.311
GCATTCA: 0.372
AATTATG: 0.423
CTTTGTA: 0.252
AATGGAG: 0.253

Sample 2
Target: Prothrombin, mature alpha-thrombin (F2, Homo sapiens, UniProt P00734)
Method: aptamer microarray, sandwich
Molecule type: DNA with 2'F-ANA
Matrix: in vitro
Concentration: 200 nM
Setting: whole 15-mer aptamer, many near background
With: Cy3 exosite-II aptamer, 400 nM
Reading: higher = stronger binding
Quantity: mean fluorescence intensity
Sequence: GGTTGGTGTGGTTGG
2'F-ANA at 3 4 8 9 10 13 14: 206 a.u.
2'F-ANA at 1 3 4 5 7 9 11 13 14 15: 58.8 a.u.
2'F-ANA at 2 3 5 6 8 9 10 11 13: 57.5 a.u.
2'F-ANA at 2 5 8 9 10 13 15: 48.8 a.u.
2'F-ANA at 1 3 4 6 11 12: 303 a.u.
2'F-ANA at 1 2 3 4 5 7 14: 46.5 a.u.
2'F-ANA at 1 2 3 4 5 6 7 11 12: 88.3 a.u.
2'F-ANA at 1 6 11 15: 139 a.u.
2'F-ANA at 5 8 9 14: 46.6 a.u.
2'F-ANA at 2 8 9 10 11 12 14 15: 84.3 a.u.
2'F-ANA at 1 2 4 6 8 13 15: 89.6 a.u.
2'F-ANA at 1 2 3 4 5 7 9 10 11 13 14: 50.4 a.u.
2'F-ANA at 1 2 5 7 10 12 13: 49.2 a.u.
2'F-ANA at 1 2 3 4 5 9 10 11 13 14 15: 47.7 a.u.
2'F-ANA at 1 2 4 5 8 9 10 11 12 13: 59.4 a.u.
2'F-ANA at 1 6 8 9 10 11 12 13 15: 63.7 a.u.
2'F-ANA at 1 2 6 9 11 12: 226 a.u.
2'F-ANA at 3 12 14 15: 861 a.u.
2'F-ANA at 2 3 5 6 12 13 14 15: 54.7 a.u.
2'F-ANA at 3 4 5 6 7 8 10 11 12 15: 65.4 a.u.
2'F-ANA at 2 3 5 6 9 10 11 12 13 15: 54.2 a.u.
2'F-ANA at 1 3 4 5 6 7 8 9 12 13 14 15: 48.3 a.u.
2'F-ANA at 2 5 7 8 9 10 13 14 15: 53.3 a.u.
2'F-ANA at 3 4 7 8 13: 617 a.u.
2'F-ANA at 1 2 4 6 7 8 9 11 12 14: 59.4 a.u.

Sample 3
Target: RNA binding protein fox-1 homolog 2, RRM domain, GST-SBP tag (RBFOX2, Homo sapiens, UniProt O43251-10, residues 100-194)
Method: RNA Bind-n-Seq
Molecule type: RNA
Matrix: in vitro
Concentration: 365 nM
Setting: natural RNA segment, single round, ends assumed
Relative to: no-protein control
Reading: higher = stronger binding
Quantity: RBNS enrichment (R)
Shared flanks, not repeated: GGGAGUUCUACAGUCCGACGAUC … UGGAAUUCUCGGGUGCCAA
Construct (chain): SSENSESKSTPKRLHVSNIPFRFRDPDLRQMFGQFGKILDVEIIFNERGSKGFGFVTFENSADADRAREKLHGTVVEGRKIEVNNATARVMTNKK
ACAUUUCUGGAUCCAGGCCAGGUGAAGAUUAGGGCCAGGAAGCCUGAGCCCCCGGGGCCUCAAGGUAGGGAGCCGAAGAGGCUGCCAGGACUCUGCUGGGUUGAAAUUUG: 0.598
UAUAAGUGACUUUAAACUUUCCCUUGGCUGUUAAGAAGUUUGUUAUAGAUUUAGCUAUUUAUUGUUCGAUGCCUGCAUGCUGAAACAAUGCCUACAGCUGUCUUCACAUG: 3.29
UAGCCAUCAUAACUCACUAACAGGGAGAAGUAGCUAGUAGCAAUGUGCCUUGAUUGAUUAGAUAAAGAUUUCUAGUAGGCAGCAAAAGACCAAAUCUCAGUUGUUUGCUU: 0.384
UGUUGGGUUAUUCCAGCCAAAGACAUUUCAAGUGCCUGUAACUGAUUUGUACAUAUUUAUAAAAAUCUAUUCAGAAAUUGGUCCAAUAAUGCACGUGCUUUGCCCUGGGU: 5.63
UUGCUGAAGUAGGGUCUGAGAGAACCCUGGCAUCAGCAGACCCAGGGUGCUUCUGUCUCCUGCAGACCACGCCAGGGAGUGCAGACACCACCGUCACACACGCCCCUUUU: 0.31
AUGAAAUAAAUAAAUCUUAAAAAAAAAAAUAAGGUGUUAACAUGAGAAGAGGCGCUUCAAGCUCUUCUAAGCCUUGAUGGUGUCUCCCUUUAGGCAAAGAUCUGAAAUAU: 0.43
GGGAGCCAGGAAGUGACGUGUGUGUCAUGUUACGGACAUCUGACUUUUGUGUGUGUGUGUGUGGGCAUCUCGCUGUAAUUGGUGCUGAAAAGUUAUUUGUGUUCAACUGA: 0.524
UACUGUUUGAGACAUUAUGGAGAGAUUUAAUUAUUUGUAAUAAAAGAUUUGCUGCAGUCUGAAAACUCCCAGGGGUGCACUGUUGGGUUUUUCUUUAAAAUAGAGUACUU: 0.748
UUUUUACUGUACCUUUUCUAUGUCUAAAUAUACAAAUGUUUUACCAUUGUGUUACAGUUGCCUACAGUAUGAUUACAGUAACAUUCUGUACAGUGCUAUAGCUGAAGAGU: 0.314
UAGCAGGACUGAAUUGUCCCCAGUUUGCAGAAAAGCACCUGCCGACCUCGUCCUCCCCCUGCCAGUGCCUUACCUCCUGCCCAGGAGAGCCAGCCCUCCCUGUCCUCCUC: 0.505
UGGUCAUCGACCUAUUUUUGUUGAAGAAUGAAAGGCAAUGACAAGUUUAACAUAUACAAAUUCGUGAAUUCUUGUUCAUUUUGCAUUCCUGCAGUCAGUGCUAAUCCGUC: 0.338
GAACGACAUAAAGAAAGCUCUUCAAUCAAAUGAUUACUUGAUAAUUGAGACAUCACAUUAUUCAUCCUGUGUCCAAGACUCAGAUAUUCUGCCCCAGUCAAAAUCAUCUU: 0.328

Sample 4
Target: Histone acetyltransferase KAT6A, winged helix 1, GST fusion (KAT6A, Homo sapiens, UniProt Q92794, residues 1-85)
Method: protein binding microarray
Molecule type: double-stranded DNA, one strand shown
Matrix: in vitro
Concentration: not given
Setting: 8-mer, flanks averaged, mean of 2 arrays, mostly near background
Relative to: not given
Reading: higher = stronger binding
Quantity: E-score
Construct (chain): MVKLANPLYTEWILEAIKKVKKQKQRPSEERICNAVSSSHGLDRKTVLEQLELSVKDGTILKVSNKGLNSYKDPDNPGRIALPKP
AGGCGCCT: 0.237
ATGTAGAC: -0.0181
ATGTCCCA: -0.125
CAACCAGA: -0.241
ACTGTCGG: 0.218
GAGAGGGA: -0.121
AACTTGTG: -0.218
AGGGACTA: -0.0456
CCGAACTA: 0.0731
CTTCGTCA: -0.0736
AAAGCAAT: -0.131
GTTATAGA: -0.177
GTCCTCAA: -0.232
GGCTCCAA: -0.0206
ACGCAGGG: 0.0258
CAAGTCTA: -0.187
CGCCAACA: 0.0515
AAAGACGA: -0.0995
GACCTAAA: 0.0117
ACTGTTAT: -0.117
CCCAGGTC: -0.0351
ATAACTGC: -0.171
ACTTACCA: -0.0671
AACAAGCT: -0.21
ACGTCCCG: 0.265

Sample 5
Target: Sal-like protein 4, full length isoform B (SALL4, Homo sapiens, UniProt Q9UJQ4-2, residues 1-616)
Method: universal PBM
Molecule type: double-stranded DNA, one strand shown
Matrix: in vitro
Concentration: not given
Setting: 8-mer, flanks averaged, mean of replicates
Reading: higher = stronger binding
Quantity: E-score
Residues (chain): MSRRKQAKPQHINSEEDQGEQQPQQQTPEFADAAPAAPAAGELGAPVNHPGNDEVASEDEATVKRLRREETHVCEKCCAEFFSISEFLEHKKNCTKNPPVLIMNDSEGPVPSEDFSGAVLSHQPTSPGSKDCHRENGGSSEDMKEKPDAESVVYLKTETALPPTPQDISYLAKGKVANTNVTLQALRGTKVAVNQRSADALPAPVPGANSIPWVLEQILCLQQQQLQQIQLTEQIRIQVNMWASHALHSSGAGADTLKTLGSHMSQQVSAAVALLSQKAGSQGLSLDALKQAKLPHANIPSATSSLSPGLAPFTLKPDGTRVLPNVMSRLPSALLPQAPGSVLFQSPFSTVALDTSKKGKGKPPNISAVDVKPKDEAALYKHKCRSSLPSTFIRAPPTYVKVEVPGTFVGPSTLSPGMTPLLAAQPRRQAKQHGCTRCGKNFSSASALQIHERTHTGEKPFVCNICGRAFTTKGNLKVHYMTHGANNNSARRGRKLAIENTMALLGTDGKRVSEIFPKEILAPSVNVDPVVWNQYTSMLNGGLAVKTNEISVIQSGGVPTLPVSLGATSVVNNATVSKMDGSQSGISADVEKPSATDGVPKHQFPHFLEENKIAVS
CAAAGTTC: -0.114
CATTGTCA: 0.0292
AATTCGCG: -0.0456
CTTGCGAC: -0.148
CTGATCAA: -0.111
AAAAAAGC: 0.181
ACCCGTTG: -0.332
TCAGACCA: 0.0262
ACGAATGG: -0.0444
CACTTCAC: -0.0433
TCCCTCCA: -0.245
CACCCAGG: -0.349
AGCATCAA: 0.221
ACTGTACA: 0.173
ATTTGGTC: -0.00974
GATCGTTA: 0.0134
GACGGGGA: -0.155
GCCCACGA: -0.237
ACCGTAAG: -0.0255
GTCCGATA: 0.0209
CCCACACA: -0.222
ATGGACAC: 0.0645

Excerpt of the above (sample 4):
GGCTCCAA: -0.0206
ACGCAGGG: 0.0258
CAAGTCTA: -0.187
CGCCAACA: 0.0515
AAAGACGA: -0.0995
GACCTAAA: 0.0117
